Values quoted from earlier work that unrelated publications cite.
Protocols differ between the studies behind these lines. Numbers after ± are the reported error.
Chain of UniProt P51589 (whole entry, looked up): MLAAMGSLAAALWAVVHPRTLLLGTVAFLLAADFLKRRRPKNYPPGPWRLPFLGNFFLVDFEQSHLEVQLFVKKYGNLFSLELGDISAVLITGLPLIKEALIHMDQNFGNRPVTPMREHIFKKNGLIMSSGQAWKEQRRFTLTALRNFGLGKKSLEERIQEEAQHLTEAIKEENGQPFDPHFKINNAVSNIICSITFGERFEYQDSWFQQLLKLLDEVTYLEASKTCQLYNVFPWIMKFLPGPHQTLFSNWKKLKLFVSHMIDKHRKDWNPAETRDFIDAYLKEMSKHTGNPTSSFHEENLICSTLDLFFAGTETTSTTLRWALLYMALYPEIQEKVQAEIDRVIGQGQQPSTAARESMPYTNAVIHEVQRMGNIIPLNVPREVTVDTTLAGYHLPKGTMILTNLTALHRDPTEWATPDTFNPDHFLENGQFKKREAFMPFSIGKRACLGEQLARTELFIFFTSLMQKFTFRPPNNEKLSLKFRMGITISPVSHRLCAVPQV
Chain of UniProt Q9UNU6 (whole entry, unmodified, looked up): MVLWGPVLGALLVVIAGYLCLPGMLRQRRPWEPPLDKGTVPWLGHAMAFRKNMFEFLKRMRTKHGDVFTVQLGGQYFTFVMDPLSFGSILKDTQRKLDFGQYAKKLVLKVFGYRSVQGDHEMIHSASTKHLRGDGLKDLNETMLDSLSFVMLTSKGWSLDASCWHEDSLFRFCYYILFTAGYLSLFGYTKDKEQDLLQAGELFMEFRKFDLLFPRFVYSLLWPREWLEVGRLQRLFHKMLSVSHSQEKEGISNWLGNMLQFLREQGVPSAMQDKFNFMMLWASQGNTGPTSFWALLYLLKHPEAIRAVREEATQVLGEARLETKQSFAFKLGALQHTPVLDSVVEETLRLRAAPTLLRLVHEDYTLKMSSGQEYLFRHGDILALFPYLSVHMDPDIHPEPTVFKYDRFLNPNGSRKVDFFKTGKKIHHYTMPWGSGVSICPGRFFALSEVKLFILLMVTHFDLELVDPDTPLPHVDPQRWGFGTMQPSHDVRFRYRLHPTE
Chain of UniProt P18089 (whole entry, looked up): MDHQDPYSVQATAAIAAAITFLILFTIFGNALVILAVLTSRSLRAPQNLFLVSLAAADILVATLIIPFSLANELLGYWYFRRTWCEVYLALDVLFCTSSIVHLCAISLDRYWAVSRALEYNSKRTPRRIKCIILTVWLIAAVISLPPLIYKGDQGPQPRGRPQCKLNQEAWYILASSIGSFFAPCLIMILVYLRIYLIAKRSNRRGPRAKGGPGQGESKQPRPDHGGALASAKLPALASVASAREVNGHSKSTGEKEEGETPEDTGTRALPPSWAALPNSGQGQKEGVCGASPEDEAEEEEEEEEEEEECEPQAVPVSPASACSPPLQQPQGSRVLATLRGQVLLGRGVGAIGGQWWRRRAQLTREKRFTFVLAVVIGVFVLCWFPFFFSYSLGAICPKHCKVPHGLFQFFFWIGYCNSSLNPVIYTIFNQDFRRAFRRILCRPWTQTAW
Chain of UniProt P06536 (whole entry, looked up): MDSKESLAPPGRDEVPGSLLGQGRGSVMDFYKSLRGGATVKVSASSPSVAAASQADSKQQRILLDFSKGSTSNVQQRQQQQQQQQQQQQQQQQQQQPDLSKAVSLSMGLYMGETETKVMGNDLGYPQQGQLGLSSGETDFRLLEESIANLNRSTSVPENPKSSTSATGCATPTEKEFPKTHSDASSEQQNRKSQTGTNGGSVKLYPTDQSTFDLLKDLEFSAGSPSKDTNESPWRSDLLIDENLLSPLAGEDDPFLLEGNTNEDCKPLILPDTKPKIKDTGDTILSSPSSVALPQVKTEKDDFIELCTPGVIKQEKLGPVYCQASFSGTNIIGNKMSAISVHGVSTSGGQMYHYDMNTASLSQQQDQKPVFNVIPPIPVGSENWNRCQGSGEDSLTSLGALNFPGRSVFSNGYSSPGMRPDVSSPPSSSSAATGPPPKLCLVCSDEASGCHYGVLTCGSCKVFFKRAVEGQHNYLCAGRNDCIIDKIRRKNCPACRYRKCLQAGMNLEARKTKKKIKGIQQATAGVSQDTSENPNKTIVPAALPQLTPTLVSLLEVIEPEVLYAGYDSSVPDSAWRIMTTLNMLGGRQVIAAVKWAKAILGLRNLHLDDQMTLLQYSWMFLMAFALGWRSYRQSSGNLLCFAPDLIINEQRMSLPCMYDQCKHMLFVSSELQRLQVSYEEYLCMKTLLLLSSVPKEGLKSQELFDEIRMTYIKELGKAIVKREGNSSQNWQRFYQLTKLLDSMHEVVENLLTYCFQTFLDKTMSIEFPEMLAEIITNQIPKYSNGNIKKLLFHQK
Chain of UniProt Q9UM73 (whole entry, unmodified, looked up): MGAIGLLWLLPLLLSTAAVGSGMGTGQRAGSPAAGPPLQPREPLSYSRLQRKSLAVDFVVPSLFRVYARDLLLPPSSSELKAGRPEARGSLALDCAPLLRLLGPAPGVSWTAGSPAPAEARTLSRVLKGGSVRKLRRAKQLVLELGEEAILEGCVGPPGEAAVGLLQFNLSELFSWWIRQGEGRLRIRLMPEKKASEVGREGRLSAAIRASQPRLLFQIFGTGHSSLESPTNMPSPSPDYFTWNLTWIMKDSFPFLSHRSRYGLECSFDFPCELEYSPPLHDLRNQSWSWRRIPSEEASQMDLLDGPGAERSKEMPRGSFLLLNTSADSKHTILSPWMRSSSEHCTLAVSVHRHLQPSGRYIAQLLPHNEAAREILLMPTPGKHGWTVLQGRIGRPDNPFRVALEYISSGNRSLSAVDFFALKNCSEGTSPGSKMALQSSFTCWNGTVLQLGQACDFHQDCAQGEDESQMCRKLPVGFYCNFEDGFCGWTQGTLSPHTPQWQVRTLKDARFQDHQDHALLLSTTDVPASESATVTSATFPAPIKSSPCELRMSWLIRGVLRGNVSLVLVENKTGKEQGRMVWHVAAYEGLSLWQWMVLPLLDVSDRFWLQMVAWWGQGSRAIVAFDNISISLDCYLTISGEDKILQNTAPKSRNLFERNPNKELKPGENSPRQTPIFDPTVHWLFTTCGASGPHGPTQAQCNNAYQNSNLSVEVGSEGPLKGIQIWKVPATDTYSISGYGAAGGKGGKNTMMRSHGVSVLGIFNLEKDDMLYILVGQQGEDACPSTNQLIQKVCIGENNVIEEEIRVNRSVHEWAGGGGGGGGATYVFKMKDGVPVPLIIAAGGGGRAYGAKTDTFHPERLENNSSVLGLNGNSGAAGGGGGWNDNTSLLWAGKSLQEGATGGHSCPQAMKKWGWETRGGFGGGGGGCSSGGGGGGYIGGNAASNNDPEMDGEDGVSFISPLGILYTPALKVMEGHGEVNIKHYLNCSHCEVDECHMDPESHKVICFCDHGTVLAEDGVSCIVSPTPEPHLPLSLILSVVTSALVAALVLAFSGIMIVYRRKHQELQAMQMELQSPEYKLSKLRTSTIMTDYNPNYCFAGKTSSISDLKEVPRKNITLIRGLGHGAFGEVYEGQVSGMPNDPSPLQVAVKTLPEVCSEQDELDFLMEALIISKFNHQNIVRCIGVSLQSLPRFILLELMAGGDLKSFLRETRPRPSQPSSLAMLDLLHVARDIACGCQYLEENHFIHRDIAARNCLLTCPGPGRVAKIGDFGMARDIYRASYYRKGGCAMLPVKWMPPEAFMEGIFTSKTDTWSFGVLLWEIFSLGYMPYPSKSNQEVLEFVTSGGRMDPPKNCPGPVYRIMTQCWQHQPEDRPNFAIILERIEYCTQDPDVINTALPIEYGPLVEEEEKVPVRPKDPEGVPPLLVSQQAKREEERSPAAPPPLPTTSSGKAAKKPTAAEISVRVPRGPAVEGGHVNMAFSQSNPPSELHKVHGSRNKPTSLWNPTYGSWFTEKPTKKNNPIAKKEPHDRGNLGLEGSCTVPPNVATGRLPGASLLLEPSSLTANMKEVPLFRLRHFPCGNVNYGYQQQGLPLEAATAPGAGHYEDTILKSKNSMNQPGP

For `CCC(=O)O[C@]1(C(=O)SCF)[C@H](C)C[C@H]2[C@@H]3C[C@H](F)C4=CC(=O)C=C[C@]4(C)[C@@]3(F)[C@@H](O)C[C@@]21C`, the receptor occupancy was 45.9% (Nr3c1 (Rattus norvegicus, UniProt P06536); rat, spleen; intravenous, 90 nmol/kg, 2.075 (unit not given)).
`CC(C)c1nc(N(C)S(C)(=O)=O)nc(-c2ccc(F)cc2)c1/C=C/[C@@H](O)C[C@@H](O)CC(=O)O` gave an AUCinf increase of 55% (BCRP; human; oral, 10 mg, together with: eltrombopag 75 mg oral; baseline: eltrombopag alone).
`CCNS(=O)(=O)C(F)(F)C(F)(F)C(F)(F)C(F)(F)C(F)(F)C(F)(F)C(F)(F)C(F)(F)F` — result for activity: “inactive” (CYP2D6; concentration not given).
`CC(O)C(C)n1ncn(-c2ccc(N3CCN(c4ccc(OCC5COC(Cn6cncn6)(c6ccc(Cl)cc6Cl)O5)cc4)CC3)cc2)c1=O` (stereo not shown) has a Km of 0.027 µM (CYP3A4 human; substrate).
`CC(C)c1nc(CN(C)C(=O)N[C@H](C(=O)N[C@@H](Cc2ccccc2)C[C@H](O)[C@H](Cc2ccccc2)NC(=O)OCc2cncs2)C(C)C)cs1` gave a Km of 0.13 µM (P-glycoprotein; substrate).
`CN(C)C(=O)c1cc2cnc(Nc3ccc(N4CCNCC4)cn3)nc2n1C1CCCC1`: “increase in AUCinf” 20% (CYP1A2; refers to: caffeine; human; 400 mg once daily, 8 days; baseline: caffeine alone).
`Nc1cc(C(F)(F)F)c(-c2nc(N3CCOCC3)nc(N3CCOCC3)n2)cn1` has a remaining activity of 95% (ALK (Homo sapiens, UniProt Q9UM73, L1196M); enzyme activity; 10 µM; baseline: untreated).
The Ki of `CC[C@H]1OC(=O)[C@H](C)[C@@H](O[C@H]2C[C@@](C)(OC)[C@@H](O)[C@H](C)O2)[C@H](C)[C@@H](O[C@@H]2O[C@H](C)C[C@H](N(C)C)[C@H]2O)[C@](C)(OC)C[C@@H](C)C(=O)[C@H](C)[C@@H](O)[C@]1(C)O` is reported as 4000 nM (P-glycoprotein (ABCB1); inhibitor; gut; Simcyp library default value).
The IC50 of `COc1cc(Nc2ncc(F)c(Nc3ccc4c(n3)NC(=O)C(C)(C)O4)n2)cc(OC)c1OC` is reported as 280 nM (human BCRP (ABCG2); literature geometric mean).
For `NS(=O)(=O)C(F)(F)C(F)(F)C(F)(F)C(F)(F)C(F)(F)C(F)(F)C(F)(F)C(F)(F)F`, activity read “inactive” (CYP2D6; concentration not given).
`CO[C@H]1/C=C/O[C@@]2(C)Oc3c(C)c(O)c4c(O)c(c(/C=N/N5CCN(C)CC5)c(O)c4c3C2=O)NC(=O)/C(C)=C\C=C\[C@H](C)[C@H](O)[C@@H](C)[C@@H](O)[C@@H](C)[C@H](OC(C)=O)[C@@H]1C` has a Km of 55 µM (P-glycoprotein (MDR1); substrate).
`CC[C@@H]([C@H](C)O)n1ncn(-c2ccc(N3CCN(c4ccc(OC[C@@H]5CO[C@@](Cn6cncn6)(c6ccc(F)cc6F)C5)cc4)CC3)cc2)c1=O` has a glucuronidated fraction of 17% (UGT1A4 (human)).
`C=C(C)C(=O)OCCC(F)(F)C(F)(F)C(F)(F)C(F)(F)C(F)(F)C(F)(F)F`: activity “inactive” (CYP2D6; concentration not given).
With `Cc1ncc([N+](=O)[O-])n1CCO` the Km was 4450 µM (CYP3A5; substrate).
Under activity, `FC(F)(F)C(F)(F)C(F)(F)C(F)(F)C(F)(F)C(F)(F)C(F)(F)C(F)(F)C(F)(F)C(F)(F)F` is recorded as “inactive” (CYP2D6; concentration not given).
The IC50 of `CNCc1cn(S(=O)(=O)c2cccc(F)c2)c(-c2ccc(F)cc2F)c1OC` is reported as > 100000 nM (OAT3; transporter uptake, inhibitor).
`CNC(C)C1CCC(N)C(OC2C(N)CC(N)C(OC3OCC(C)(O)C(NC)C3O)C2O)O1` (stereo not shown) has an MIC of > 8 µg/mL (Pseudomonas aeruginosa; clinical isolate RKI-No_93/12).
`C=CC[C@@H]1/C=C(\C)C[C@H](C)C[C@H](OC)[C@H]2O[C@@](O)(C(=O)C(=O)N3CCCC[C@H]3C(=O)O[C@H](/C(C)=C/[C@@H]3CC[C@@H](O)[C@H](OC)C3)[C@H](C)[C@@H](O)CC1=O)[C@H](C)C[C@@H]2OC` has an intrinsic clearance of 38.1 µL/min/pmol (human CYP3A4 recombinant; substrate).
For `O=S(=O)(O)C(F)(F)F`, the IC50 was 39900 ± 23000 nM (CYP2D6; inhibitor; Tox21 screening).
`C[C@@H](c1ncncc1F)[C@](O)(Cn1cncn1)c1ccc(F)cc1F` — result for inhibition: “no inhibition” (BCRP; in vitro; concentration not given).
The metabolized fraction of `CCCn1cc(C)c2c(=O)[nH]c(-c3cc(S(=O)(=O)N4CCN(CC)CC4)ccc3OCC)nc21` is reported as ~90% (CYP3A4 and CYP3A5 (human); substrate; human liver microsomes).
For `CC(C)CCC[C@@H](C)[C@H]1CC[C@H]2[C@@H]3[C@H](O)CC4=CC(=O)CC[C@]4(C)[C@H]3CC[C@]12C`, “Kd fold increase” read ~2 fold (7-alpha-hydroxycholest-4-en-3-one 12-alpha-hydroxylase (Homo sapiens, UniProt Q9UNU6, W281F); baseline: W281F mutant over wild type).
`CO[C@]1(C(=O)N[C@@H](C)c2ccc(-n3cc(F)cn3)nc2)CC[C@H](c2nc(C)cc(Nc3cc(C)[nH]n3)n2)CC1` — result for “efflux ratio decrease”: 55.4% (BCRP; MDCK-BCRP; together with: Ko143).
The IC50 of `CCCCCCCCCc1c(C)[nH]c2ccccc2c1=O` is reported as 160 nM (Plasmodium falciparum; whole cell extended time; 3D7; 72 h).
For `COc1cc2c(c(OC)c1OC)-c1c(cc3c(c1OC)OCO3)CC(C)C(C)C2` (stereo not shown), the Ki was 4200 nM (CYP3A, rat; enzyme activity, inhibitor; rat liver microsomes).
The Km of `CN/C(=N/CCSCc1nc[nH]c1C)NC#N` is reported as 72.6 µM (SLC22A2; substrate).
`Cc1ccc(C)c(OCCCC(C)(C)C(=O)O)c1` has a Km of 2.17 µM (UGT2B7; O-glucuronidation, substrate; unbound).
`O=C1Nc2ccc(Cl)cc2[C@@](C#CC2CC2)(C(F)(F)F)O1` gave an intrinsic clearance of 1.36 µL/min/pmol (2B6; Simcyp compound file).
With `O=C(O)CN1CCN(CC(=O)O)CCN(CC(=O)O)CC1` the log K was 21.6 (Cu2+; Cu2+ + L- to CuL+).
`COc1cccc2c1C(=O)c1c(O)c3c(c(O)c1C2=O)C[C@@](O)(C(=O)CO)C[C@@H]3O[C@H]1C[C@H](N)[C@H](O)[C@H](C)O1` has a Kd of 5330 nM (Cytochrome P450 2J2 (CYP2J2, Homo sapiens, UniProt P51589)).
`Cc1cc(-c2nccc3c2ccn3CC(=O)Nc2ccc(-c3cnccn3)cn2)ccn1` has an inhibition of 30.5 ± 4.4% (hERG potassium channel; ion current, inhibitor; 18.4 µM).
The IC50 of `Cc1[nH]c(C)c(-c2ccc(-c3cc(C(F)(F)F)cc(C(F)(F)F)c3)nc2)c(=O)c1Br` is reported as 80 nM (Plasmodium falciparum; whole cell extended time; 3D7; 72 h).
`C[C@H]1COCCN1c1nc(-c2cnc(N)cc2C(F)F)nc(N2CCOCC2)n1` has a GI50 of 694 nM (PA-1).
With `CNC(=O)[C@@]12C[C@@H]1[C@@H](n1cnc3c(NCc4cccc(Cl)c4)nc(C#Cc4ccc(F)c(F)c4)nc31)[C@H](O)[C@@H]2O` the Ki was 2900 nM (ADRA2B (Homo sapiens, UniProt P18089); radioligand binding).
The Vmax of `CC(=O)C(C)n1ncn(-c2ccc(N3CCN(c4ccc(OC[C@H]5CO[C@](Cn6cncn6)(c6ccc(Cl)cc6Cl)O5)cc4)CC3)cc2)c1=O` (stereo partly shown) is reported as 86.9 pmol/min/nmol (CYP3A4 human; substrate).
`CC(=O)Nc1ccc(O)cc1` gave a Vmax of 10900 pmol/min/mg protein (UGT1A9).
`CCC(C)n1ncn(-c2ccc(N3CCN(c4ccc(OCC5COC(Cn6cncn6)(c6ccc(Cl)cc6Cl)O5)cc4)CC3)cc2)c1=O` (stereo not shown) has a Ki of 940 nM (CYP3A5).
`COc1cc(/C=C/C(=O)CC(=O)/C=C/c2ccc(O)c(OC)c2)ccc1O` has a Ki of 700 ± 410 nM (BCRP; inhibitor).
For `FC(F)(F)C(F)(F)C(F)(F)C(F)(F)C(F)(F)C(F)(F)C(F)(F)C(F)(F)Br`, IC50 read “inactive” (CYP2C9; inhibitor; Tox21 screening).
`CC1(C)S[C@@H]2[C@H](NC(=O)[C@H](N)c3ccccc3)C(=O)N2[C@H]1C(=O)O` gave an MIC of > 16 µg/mL (Pseudomonas aeruginosa; clinical isolate RKI-No_93/12).
